{"data": "Literature values that unrelated publications cite", "note": "Numbered parts are unrelated; values within a part may stem from several laboratories. Numbers after ± are the reported error."}
{"data": "Study 1", "organism": "Toxoplasma gondii", "read-out": "parasite growth", "tested at": "concentration not given", "notes": "published screen"}
{"Compound": "CC12CC3CC(C)(C1)CC(N)(C3)C2", "activity class": "inactive"}
{"Compound": "COc1ccc(C2CNC(=O)C2)cc1OC1CCCC1 (stereo not drawn)", "activity class": "inactive"}
{"Compound": "Cc1sc(N)c(C(=O)c2cccc(C(F)(F)F)c2)c1C", "activity class": "inactive"}
{"Compound": "CC#C[C@]1(O)CC[C@H]2[C@@H]3CCC4=CC(=O)CCC4=C3[C@@H](c3ccc(N(C)C)cc3)C[C@@]21C", "activity class": "inactive"}
{"data": "Other studies, line by line"}
{"Structure (SMILES)": "Cc1cc2c(-c3ccco3)cnc(N[C@@H]3CCN(C)C[C@H]3C(=O)NC3CCCCC3)c2[nH]c1=O", "target or system": "BET BD1 domain (human)", "assay": "cell-based", "endpoint": "IC50", "value": "125 nM"}
{"Structure (SMILES)": "Cc1cc(-c2nccc3c2ccn3CC(=O)Nc2ccc(-c3cnccn3)cn2)ccn1", "test system": "mouse and rat, bleomycin-induced pulmonary fibrosis", "conditions": "25 mg/kg mouse, 10 mg/kg rat", "endpoint": "Ctrough at efficacious dose relative to IC50", "value": "~0.5"}
{"Structure (SMILES)": "CN1CCN(C(=O)C(C)(C)c2ccc(C(=O)Nc3cn4cc(-c5ccncc5)ccc4n3)cc2)CC1", "target or system": "CLK1 (human)", "assay": "cellular activity", "endpoint": "IC50", "value": "3.49 nM"}
{"Structure (SMILES)": "Nc1ccccc1NC(=O)c1ccc(CNC(=O)OCc2cccnc2)cc1", "target or system": "A2780cisR", "assay": "cell viability, MTT", "conditions": "72 h", "endpoint": "IC50", "value": "5570 ± 430 nM"}
{"Structure (SMILES)": "C[C@H](c1ccnc(Nc2nc3ccc(-c4cc(N(C)C)ncn4)cc3[nH]2)c1)N1CCN(C(=O)CC(F)(F)F)CC1", "target or system": "IKBKE", "conditions": "low ATP", "endpoint": "IC50", "value": "2 nM"}
{"Structure (SMILES)": "CN(C)c1ccc(C(=O)N(CC(=O)NCc2ccccc2)Cc2ccc(C(=O)Nc3ccccc3N)cc2)cc1", "target or system": "A2780cisR", "assay": "cell viability, MTT", "conditions": "72 h", "endpoint": "IC50", "value": "8280 ± 780 nM"}
{"Structure (SMILES)": "Cc1cc(-c2ncc(CC(=O)Nc3ccc(-c4cnccn4)cn3)cc2C)ccn1", "assay": "item: Axin2 mRNA", "test system": "human advanced cancer patients, skin", "conditions": "10 mg once daily", "endpoint": "reduction", "value": "~60%"}
{"Structure (SMILES)": "C[C@H](NC(=O)Nc1cc2[nH]ncc2c(CO)n1)c1ccccn1", "target or system": "MAPK1", "assay": "biochemical", "endpoint": "IC50", "value": "1780 nM"}
{"note": "Repeated from above (other studies, line by line):"}
{"Structure (SMILES)": "C[C@H](c1ccnc(Nc2nc3ccc(-c4cc(N(C)C)ncn4)cc3[nH]2)c1)N1CCN(C(=O)CC(F)(F)F)CC1", "target or system": "IKBKE", "conditions": "low ATP", "endpoint": "IC50", "value": "2 nM"}
{"Structure (SMILES)": "CN(C)c1ccc(C(=O)N(CC(=O)NCc2ccccc2)Cc2ccc(C(=O)Nc3ccccc3N)cc2)cc1", "target or system": "A2780cisR", "assay": "cell viability, MTT", "conditions": "72 h", "endpoint": "IC50", "value": "8280 ± 780 nM"}
